Measurements pooled from the literature.
Each numbered part is a random draw from the data of one study; scales do not carry over between parts. Changes are numbered by the printed parent chain.

Block 1
Target: Histone acetyltransferase KAT6A, winged helix 1, GST fusion (KAT6A, Homo sapiens, UniProt Q92794, residues 1-85)
Technique: protein binding microarray
Form: double-stranded DNA, one strand shown
Matrix: in vitro
Concentration: not given
Setting: 8-mer, flanks averaged, mean of 2 arrays, mostly near background
Relative to: not given
Reading: higher = stronger binding
Endpoint: E-score
Target sequence (chain): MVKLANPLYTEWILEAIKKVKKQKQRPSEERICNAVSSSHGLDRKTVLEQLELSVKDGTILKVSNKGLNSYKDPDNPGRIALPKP
ATTTAGTA: 0.0281
GAGGGCGA: 0.0918
AAAGTGCG: 0.135
AGAAGGCG: -0.0483
CTAGTGAC: -0.104
AGTCGACC: 0.00065
AAATCTCC: -0.108
CACCCCCG: 0.118
ATAAGAGC: -0.023
GACGGTTA: 0.204
AACGGCTC: 0.253
AAGGGAAA: -0.207
AGCATTGG: -0.18
ACAAATAT: -0.224
ACAGCAGA: -0.0843
CTGTCTCC: -0.0122
AGGACTCC: -0.149

Block 2
Target: RNA binding protein fox-1 homolog 2, RRM domain, GST-SBP tag (RBFOX2, Homo sapiens, UniProt O43251-10, residues 100-194)
Technique: RNA Bind-n-Seq
Form: RNA
Matrix: in vitro
Concentration: 365 nM
Setting: natural RNA segment, single round, ends assumed
Relative to: no-protein control
Reading: higher = stronger binding
Endpoint: RBNS enrichment (R)
All sequences stand within: GGGAGUUCUACAGUCCGACGAUC … UGGAAUUCUCGGGUGCCAA
Target sequence (chain): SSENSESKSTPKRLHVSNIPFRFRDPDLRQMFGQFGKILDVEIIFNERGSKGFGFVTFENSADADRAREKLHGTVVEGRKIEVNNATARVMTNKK
AGCAACUGUCCCUAAGAUGCUUUCAAGUGUAUGAGACAUGAGGAGGCUGGGCCACUCUGGUUAUGCACAGUCAGGCAAACUGUCCUUGUAGACGAGUCCCCGACUCUGGG: 0.372
GAUUUUCAGUAACUGAAUUUGUGCACAAAACAUUCUAAACACUAGUGAAGCCUGUUUCGUUGAACUAAUUCUGGCUCUGGAAAUGUUUUUGUUUUAUAGUUAUUUACGAU: 0.52
AAUGCUUCUAUUUAAAGGGGAAAUAUUUCUACAUGUGCAUAUAGUUUUCCAAGAGUGUACCAUUAACUUGAUUGUUGAUAAUAAAAAGAAAAAGCAAGUCUAAGCAAGUA: 0.672
GUGUAUGGUCUCCUUCUCCCGAAAGUGUACUUAAUCUUUGCUUUCUUUGCACAAUGUCUUUGGUUGCAAGUCAUAAGCCUGAGGCAAAUAAAAUUCCAGUAAUUUCCAAG: 3.6
CCAAAGGGGACUCGGUUGGGAGAGCCGCUUAGGGGCCAGACCUGGGUCCCCCUGCAGGUCCCCAGGCAGCAGACAAUUCCACCUUCCCUGCCCCAGGACCUUGAGAGACA: 0.402
GUGUUAUGGGUGUACAUAUUUGUAUAUUUUUUGUCAUCCUGAGAUACUUCUAAUUUCAUUGUAUAUAGGUGGUUUUCCCUGGAAUUCAUUAAUUGUUUGCUUUGGACAUG: 1.49
GCUCAUCCACCUUCACACCACUUGUGAGCUGACCCCCAGGAACAGCUUGGCUGUUCCACCAGAGCAGAGGGAAUCAUUGCUGGACUGGAUUUCUUCUGGAGGGAAGCACC: 0.292
UCAGUCUAAAAAACGAAGGGAUGUGCAACUGCAGCUCUUUAAGAAGUUUUUUUUUUUUAGCUUCUAGGGUAAAGAUAAAUUCAGAAAUGCUCUAAGCUACCAAAGUUAUU: 0.411

Block 3
Target: CCNE2, cyclin fold, Cln2 fusion (human)
Technique: yeast growth competition, sequencing
Matrix: yeast
Setting: strong parent motif
Relative to: not given
Reading: higher = stronger binding
Endpoint: normalised enrichment score
Starting sequence: CDKN1A docking peptide (human); SKACRRLFGPVDS
SKACRRLFGPSDS [V11S]: 4.2
SKACRRLFGCVDS [P10C]: 2.91
SKACRRLFGPNDS [V11N]: 4.16
SKCCRRLFGPVDS [A3C]: 3.48
SKAGRRLFGPVDS [C4G]: 0.621
SKACRRDFGPVDS [L7D]: 0.272
SKACRELFGPVDS [R6E]: 0.751
SKACRRLFGPRDS [V11R]: 2.86
SSACRRLFGPVDS [K2S]: 3.97
SKADRRLFGPVDS [C4D]: 0.439
SKACRKLFGPVDS [R6K]: 3.28
SKACRRLFWPVDS [G9W]: 3.8
SKACRRLFGTVDS [P10T]: 3.58
SKACRCLFGPVDS [R6C]: 1.64
SKACRRLFGYVDS [P10Y]: 2.77
SKACRRLFGPGDS [V11G]: 4.32
SKACRRLFGPVLS [D12L]: 2.42
SKALRRLFGPVDS [C4L]: 1.01
SKACRRLFGPPDS [V11P]: 3.82
SKACRPLFGPVDS [R6P]: -0.0245
SKACRRLFFPVDS [G9F]: 4.83
SKACRRLTGPVDS [F8T]: -0.18
SKACRRLFGPQDS [V11Q]: 4.25
SKACRRLFGPVGS [D12G]: 3.06
SKPCRRLFGPVDS [A3P]: 1.73

Block 4
Target: CREB3L4, bZIP domain (human)
Technique: DHFR protein complementation
Matrix: yeast
Setting: single substitutions, most at no-binding floor
Relative to: wild-type JUN-FOS pair
Reading: higher = stronger binding
Endpoint: binding fitness
Starting sequence: JUN, bZIP domain (human); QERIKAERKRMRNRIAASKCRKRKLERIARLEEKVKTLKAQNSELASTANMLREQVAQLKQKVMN; partner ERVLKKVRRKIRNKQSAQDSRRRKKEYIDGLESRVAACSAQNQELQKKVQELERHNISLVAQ
S47Y: -1.26 natural log
Q41M: -1.52 natural log
L59H: -1.54 natural log
L45N: -1.45 natural log
I28Y: -1.46 natural log
L52V: -1.56 natural log
M51P: -1.43 natural log
Q55K: -1.14 natural log
L38Q: -1.44 natural log
K36P: -1.5 natural log
A46Y: -1.41 natural log
K39D: -1.46 natural log
L31Y: -1.51 natural log
A57L: -1.4 natural log
I28T: -1.54 natural log
A46S: -1.55 natural log
E33R: -1.45 natural log

Block 5
Target: ABI1, truncated, D143A, DHFR fusion (Arabidopsis thaliana)
Technique: DHFR PCA, deep sequencing
Matrix: yeast
Setting: methotrexate growth selection, single substitutions
Added: (+)-ABA 0.0091 µM
Relative to: wild-type fitted maximum
Reading: higher = stronger binding
Endpoint: relative binding score
Starting sequence: PYL1, truncated, DHFR fusion (Arabidopsis thaliana); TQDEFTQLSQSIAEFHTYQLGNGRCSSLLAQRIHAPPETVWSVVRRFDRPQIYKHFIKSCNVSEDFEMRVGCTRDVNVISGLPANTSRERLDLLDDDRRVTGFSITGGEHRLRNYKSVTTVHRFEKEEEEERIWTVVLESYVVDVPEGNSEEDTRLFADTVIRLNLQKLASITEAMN
E174A: -1.08%
K168C: 2.01%
K126H: 44.2%
V70W: -3.17%
L20Y: 20%
G21W: -1.42%
E151V: 50.5%
E67I: 21.2%
R163F: -9.01%
R49N: 2.98%
H110E: 46.4%
I33S: -2.18%
T73C: 13.9%
L91A: 4.67%
F15E: -1.03%
T6Q: 51.1%

A few entries again (block 1):
AGAAGGCG: -0.0483
CTAGTGAC: -0.104
AGTCGACC: 0.00065
AAATCTCC: -0.108
CACCCCCG: 0.118
ATAAGAGC: -0.023
